Published values collected from several papers.
Protocols differ between the studies behind these lines. ± gives the spread as reported.
SIRT2: NAD-dependent protein deacetylase sirtuin-2 (SIRT2, Homo sapiens, UniProt Q8IXJ6)
CYP2C8: Cytochrome P450 2C8 (CYP2C8, Homo sapiens, UniProt P10632)
UCHL1: Ubiquitin carboxyl-terminal hydrolase isozyme L1 (UCHL1, Homo sapiens, UniProt P09936)
CRBN with DDB1: Protein cereblon, with DDB1 (CRBN, Homo sapiens, UniProt Q96SW2)
Histone acetyltransferase RTT109 with Vps75: Histone acetyltransferase RTT109, with Vps75 (Saccharomyces cerevisiae, UniProt Q07794)
LRRK2: Leucine-rich repeat serine/threonine-protein kinase 2 (LRRK2, Homo sapiens, UniProt Q5S007)
BRD4 BD2: Bromodomain-containing protein 4, BD2 (BRD4, Homo sapiens, UniProt O60885)

SMILES	tested on	assay	system	setting	how to read	endpoint	result
CCNCc1nc2c(N)nc3ccccc3c2n1CC(C)(C)O	Toxoplasma gondii	parasite growth	HFF, bradyzoite, glutamine-induced	–	–	EC50	30 µM
CCc1ccc(Cn2nnc3c4ccc(F)cc4c(=O)[nH]c32)cc1	PARP3 (Homo sapiens, UniProt Q9Y6F1)	–	–	–	–	IC50	> 10 µM
COC(=O)c1cccc(-c2nc(-c3c(C)ncc4c3CCNC4)no2)c1	Catenin beta-1, with BCL9 HD2 (CTNNB1, Homo sapiens, UniProt P35222)	BCL9 binding, inhibitor, AlphaScreen	–	–	–	IC50	4.66 µM
CCCCCCCCCCCCNC(=S)NCCCC[C@H](NC(=O)OCc1ccccc1)C(=O)N[C@@H](Cc1c[nH]c2ccccc12)C(=O)N[C@@H](CCNC(=N)N)C(N)=O	SIRT2	enzyme activity, inhibitor	–	–	–	IC50	7.3 ± 0.8 µM
O=C(Nc1nc2ccccc2n1CCN1CCOCC1)c1cccc([N+](=O)[O-])c1	Receptor-like protein kinase FERONIA (FER, Arabidopsis thaliana, UniProt Q9SCZ4)	enzyme activity, inhibitor	–	–	–	IC50	0.215 µM
NS(=O)(=O)C#Cc1ccccc1	Toxoplasma gondii	parasite growth	HFF, bradyzoite, glutamine-induced	–	–	EC50	8.66 µM
Cc1nc(-c2cnc(NC(C)C)n(C)c2=O)ccc1Oc1ccnc(-c2cnn(C)c2)c1	CYP2C8	direct inhibition, inhibitor	–	no preincubation	–	IC50	75 µM
O=C(Nc1cccnn1)N1CCC(=Cc2cccc(Oc3ccc(C(F)(F)F)cn3)c2)CC1	Faah (Rattus norvegicus, UniProt P97612)	enzyme activity, inhibitor	rat brain membranes	15 min preincubation	–	IC50	0.0015 µM
CN1C(=O)C(=C(C#N)C(=O)NCc2ccc(Cl)cc2)c2ccccc21	UCHL1	inhibitor, ubiquitin-rhodamine cleavage	–	2 h preincubation	–	IC50	> 200 µM
CCCCCCCCCCCCNC(=S)NCCCC[C@H](NC(=O)OCc1ccccc1)C(=O)N[C@@H](Cc1c[nH]c2ccccc12)C(=O)N[C@@H](CCCCNC(=N)N)C(N)=O	SIRT2	enzyme activity, inhibitor	–	–	–	IC50	2.4 ± 0.6 µM
O=C1CCC(N2Cc3cc(CNC(=O)c4ccc(F)cc4)ccc3C2=O)C(=O)N1 (stereo not shown)	CRBN with DDB1	binding, competitor, fluorescence polarization	–	with: Cy5-labelled lenalidomide probe	–	IC50	1.4 µM
O=S1(=O)C=C(Br)c2ccccc21	Histone acetyltransferase RTT109 with Vps75	enzyme activity, inhibitor, HTS, CPM-based, dose response	–	–	–	IC50	> 125 µM
C[C@@H]1[C@H](O)[C@@H](C)/C=C/C=C/C=C/C=C/C=C/C=C/C=C/[C@H](O[C@@H]2O[C@H](C)[C@@H](O)[C@H](N)[C@@H]2O)C[C@@H]2O[C@](O)(C[C@@H](O)C[C@@H](O)[C@H](O)CC[C@@H](O)C[C@@H](O)CC(=O)O[C@H]1C)C[C@H](O)[C@H]2C(=O)O	Trypanosoma cruzi	reporter translation, Renilla luciferase mRNA translation	cell-free extract	40 µM	reference: DMSO	inhibition	93.9%
CN1CCN(c2ccc(Nc3ncc4cc(C#N)c(=O)n(C5CCCC5)c4n3)cc2)CC1	LRRK2	–	–	–	–	IC50	0.624 µM
Cc1ccc2[nH]nc(-c3nnc(Nc4ccc([N+](=O)[O-])cc4)s3)c2c1	thymidine phosphorylase	enzyme activity, inhibitor, spectrophotometric	–	pH 7.5, 25 °C	–	IC50	7.73 ± 1.62 µM
O=C(Nc1cccc2c(=O)cc(-c3nnn[nH]3)oc12)c1ccc(OCCCCc2ccccc2)cc1	LRRC8A/LRRC8C (Homo sapiens, UniProt Q8IWT6+Q8TDW0, L134K/L136K)	ion current, inhibitor, whole-cell patch clamp	HCT116 LRRC8-/- transfected	at -100 mV	–	IC50	1.9 µM
Cc1cc(C)n(Cc2ccc(C(=O)NC3CS(=O)(=O)c4ccccc43)cc2)n1 (stereo not shown)	Histone acetyltransferase RTT109 with Vps75	enzyme activity, inhibitor, HTS, CPM-based, dose response	–	–	–	IC50	> 125 µM
CC[C@@H]1[C@H](F)C(=O)N[C@@H]1COc1nccc2cc(C(N)=O)c(OC)cc12	STK38L (Homo sapiens, UniProt Q9Y2H1)	ATP-site probe binding, ActivX profiling	THP-1 cell lysate	Lys1 site	–	IC50	0.99 µM
O=C(CCl)c1c(-c2ccccc2)[nH]c2ccccc12	UCHL1	inhibitor, ubiquitin-rhodamine cleavage	–	2 h preincubation	–	IC50	> 200 µM
CCOc1cc(-c2nncn2C)ccc1Nc1ncc2cc(C)nc(NCC(C)(C)C)c2n1	CYP2C8	enzyme activity, inhibitor	–	–	–	IC50	10 to 50 µM
Nc1ccn([C@@H]2O[C@H](COP(=O)(O)OP(=O)(O)O)[C@@H](O)[C@H]2O)c(=O)n1	RNASE1 (Bos taurus, UniProt P61823)	native MS, single-point	–	0.2 µM	–	Kd	4 ± 0.2 µM
Cc1cnc(-c2ccc(-c3ccc(NC(=O)Nc4c(F)cc(F)cc4F)cc3F)c3c2C(=O)NC3)[nH]1	PDGFRB (Homo sapiens, UniProt P09619)	enzyme activity, inhibitor, mobility shift	–	with: ATP 1 mM	–	IC50	0.0254 µM

SMILES	tested on	assay	system	setting	how to read	endpoint	result
O=C(OCc1ccccc1)c1ccc(O)cc1	Histone-arginine methyltransferase CARM1 (Mus musculus, UniProt Q9WVG6)	methyltransferase activity, inhibitor	–	with: histone H3 substrate, [3H]AdoMet	–	IC50	309 µM
CC1=CS(=O)(=O)c2ccccc21	Histone acetyltransferase RTT109 with Vps75	enzyme activity, inhibitor, HTS, CPM-based, dose response	–	–	–	IC50	> 125 µM
C=CC(=O)Nc1cccc(Oc2nc(Nc3ccc(N4CCN(C)CC4)cc3)nc3ccoc23)c1	LYN (Homo sapiens, UniProt P07948)	–	–	–	–	IC50	3.97 µM
O=C(O)c1cc(O)c2c(c1)[C@H]([C@H]1c3cc(C(=O)O)cc(O)c3C(=O)c3c(O[C@@H]4O[C@H](CO)[C@@H](O)[C@H](O)[C@H]4O)cccc31)c1cccc(O[C@@H]3O[C@H](CO)[C@@H](O)[C@H](O)[C@H]3O)c1C2=O	serine/threonine phosphatase Stp1 (Staphylococcus aureus, UniProt A0A0H2XF73)	phosphatase activity, inhibitor	–	–	–	IC50	> 74.2 µM
COc1ccc(C2=NN(C3CCCCCC3)C(=O)[C@@H]3CC=CC[C@H]23)cc1-c1ccc(C(N)=O)cc1 (relative stereo)	3',5'-cyclic-AMP phosphodiesterase 4B, isoform PDE4B1 (PDE4B, Homo sapiens, UniProt Q07343)	enzyme activity, inhibitor, scintillation proximity	–	with: 0.5 µM substrate	–	IC50	0.158 µM
CC1=CC(=O)C(C(C)C)=CC1=O	LRRK2	kinase activity, radiometric	–	with: MBP substrate	–	IC50	0.674 µM
Cn1nc2c(=O)n(C3CC3)ncc2c1[C@](O)(c1cnc(C(F)(F)F)c(Cl)c1)C(F)(F)F	Dihydroorotate dehydrogenase (Canis lupus familiaris, UniProt A0A8I3MWX2)	enzyme activity, inhibitor, DCIP reduction	–	–	–	IC50	> 30 µM
COc1cc(CN(C)CCc2ccccc2)ccc1OCc1ccccc1	Trypanosoma cruzi	reporter translation, Renilla luciferase mRNA translation	cell-free extract	40 µM	reference: DMSO	inhibition	-11.9%
O=C1CCC(N2C(=O)c3cccc(NCCCCNC(=O)c4ccc(Oc5ccc(Cl)cc5NS(=O)(=O)c5ccc(Cl)c(C(F)(F)F)c5)cc4)c3C2=O)C(=O)N1 (stereo not shown)	CRBN with DDB1	binding, HTRF	–	–	–	IC50	0.0393 µM
COc1ccc(-c2cc(=O)c3cccc(Nc4ncc5cc(C(=O)N(C)C)n(C6CCCC6)c5n4)c3o2)cc1	Bromodomain-containing protein 4, BD1 (BRD4, Homo sapiens, UniProt O60885)	inhibitor	–	–	–	IC50	> 10 µM
CC(C)=CCc1c(O)cc(O)c2c1O[C@H](c1ccc(O)cc1)CC2=O	CYP2C8	inhibitor	–	pH 7.4	–	IC50	0.6 ± 0.1 µM
CC(C)C[C@H](NC(=O)[C@H](Cc1ccccc1)NC(=O)OCc1ccccc1)C(=O)C=O	CAPN1 (Homo sapiens, UniProt P07384)	–	–	–	–	IC50	> 10 µM
O=S1(=O)CC(c2ccccc2)c2ccccc21 (stereo not shown)	Histone acetyltransferase RTT109 with Vps75	enzyme activity, inhibitor, HTS, CPM-based, dose response	–	–	–	IC50	> 125 µM
Cc1cc(C)nc(SCC(=O)Nc2ncc(Cc3cccc(OCc4cn(Cc5ccccc5C)nn4)c3)s2)n1	SIRT2	inhibitor	–	–	–	IC50	0.76 ± 0.16 µM
CN(C)C(=O)c1cc2cnc(Nc3cc(C(=O)O)cc(-c4ccc5c(=O)cc(N6CCOCC6)oc5c4)c3)nc2n1C1CCCC1	BRD4 BD2	inhibitor	–	–	–	IC50	> 10 µM
COc1ccc(CNC2CC(=O)N(c3ccc(Br)cc3)C2=O)cc1 (stereo not shown)	Histone acetyltransferase RTT109 with Vps75	enzyme activity, inhibitor, HTS, CPM-based, dose response	–	–	–	IC50	> 125 µM
N#Cc1ccc2nc(Nc3ccc(N4CCOCC4)c(Cl)c3)[nH]c2c1	GSK3B (Homo sapiens, UniProt P49841)	binding, NanoBRET target engagement	HEK293 cells	with: tracer K8	–	IC50	> 30 µM
CN(C)C(=O)c1cc2cnc(Nc3cc(C(F)(F)F)c(-c4ccc5c(=O)cc(N6CCOCC6)oc5c4)cn3)nc2n1C1CCCC1	BRD4 BD2	inhibitor	–	–	–	IC50	> 10 µM
Cc1ccc2[nH]nc(-c3nnc(Nc4ccc(Br)cc4)s3)c2c1	thymidine phosphorylase	enzyme activity, inhibitor, spectrophotometric	–	pH 7.5, 25 °C	–	IC50	17.7 ± 1.2 µM
CC(NC(=O)C(C#N)=Cc1cccc(Cl)c1Cl)c1ccccc1 (stereo not shown)	UCHL1	inhibitor, ubiquitin-rhodamine cleavage	–	2 h preincubation	–	IC50	> 200 µM
N=C(N/N=C/c1ccccc1)SC1CC(=O)N(c2ccc(Br)cc2)C1=O (stereo not shown)	Histone acetyltransferase RTT109 with Vps75	enzyme activity, inhibitor, HTS, CPM-based, dose response	–	–	–	IC50	> 125 µM

For quick reference, copied from above:
SMILES	tested on	assay	system	setting	how to read	endpoint	result
O=S1(=O)C=C(Br)c2ccccc21	Histone acetyltransferase RTT109 with Vps75	enzyme activity, inhibitor, HTS, CPM-based, dose response	–	–	–	IC50	> 125 µM
C[C@@H]1[C@H](O)[C@@H](C)/C=C/C=C/C=C/C=C/C=C/C=C/C=C/[C@H](O[C@@H]2O[C@H](C)[C@@H](O)[C@H](N)[C@@H]2O)C[C@@H]2O[C@](O)(C[C@@H](O)C[C@@H](O)[C@H](O)CC[C@@H](O)C[C@@H](O)CC(=O)O[C@H]1C)C[C@H](O)[C@H]2C(=O)O	Trypanosoma cruzi	reporter translation, Renilla luciferase mRNA translation	cell-free extract	40 µM	reference: DMSO	inhibition	93.9%
CN1CCN(c2ccc(Nc3ncc4cc(C#N)c(=O)n(C5CCCC5)c4n3)cc2)CC1	LRRK2	–	–	–	–	IC50	0.624 µM
Cc1ccc2[nH]nc(-c3nnc(Nc4ccc([N+](=O)[O-])cc4)s3)c2c1	thymidine phosphorylase	enzyme activity, inhibitor, spectrophotometric	–	pH 7.5, 25 °C	–	IC50	7.73 ± 1.62 µM
